Earlier results as cited in several papers.
± gives the spread as reported.
Slc6a4: Sodium-dependent serotonin transporter (Slc6a4, Rattus norvegicus, UniProt P31652)

By UniProt entry, the sequences of proteins in these tests, tags left out.
UniProt P31652, whole entry: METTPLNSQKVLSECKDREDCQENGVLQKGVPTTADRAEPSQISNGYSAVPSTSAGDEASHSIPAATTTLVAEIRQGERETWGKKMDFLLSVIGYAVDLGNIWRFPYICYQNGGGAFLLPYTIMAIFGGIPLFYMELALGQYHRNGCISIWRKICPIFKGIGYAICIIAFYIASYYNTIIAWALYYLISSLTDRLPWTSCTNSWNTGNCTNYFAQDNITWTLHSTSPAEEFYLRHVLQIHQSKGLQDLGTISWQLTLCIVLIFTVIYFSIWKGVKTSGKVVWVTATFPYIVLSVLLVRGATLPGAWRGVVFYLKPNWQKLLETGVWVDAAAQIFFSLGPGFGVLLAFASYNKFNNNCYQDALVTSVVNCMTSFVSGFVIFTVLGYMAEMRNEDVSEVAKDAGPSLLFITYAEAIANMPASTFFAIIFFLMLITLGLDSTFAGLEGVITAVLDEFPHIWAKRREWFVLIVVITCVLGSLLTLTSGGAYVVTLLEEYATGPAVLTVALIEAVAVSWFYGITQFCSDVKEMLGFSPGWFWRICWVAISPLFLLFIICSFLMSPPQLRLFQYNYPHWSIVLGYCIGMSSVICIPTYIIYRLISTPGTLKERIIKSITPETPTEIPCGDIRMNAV
UniProt P25084, whole entry: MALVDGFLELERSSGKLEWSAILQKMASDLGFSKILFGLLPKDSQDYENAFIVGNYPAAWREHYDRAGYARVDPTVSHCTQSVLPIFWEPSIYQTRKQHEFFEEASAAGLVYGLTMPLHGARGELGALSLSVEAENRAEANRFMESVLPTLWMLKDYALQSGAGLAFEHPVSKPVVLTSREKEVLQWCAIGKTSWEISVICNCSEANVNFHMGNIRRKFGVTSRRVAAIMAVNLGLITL
UniProt Q86X55, whole entry: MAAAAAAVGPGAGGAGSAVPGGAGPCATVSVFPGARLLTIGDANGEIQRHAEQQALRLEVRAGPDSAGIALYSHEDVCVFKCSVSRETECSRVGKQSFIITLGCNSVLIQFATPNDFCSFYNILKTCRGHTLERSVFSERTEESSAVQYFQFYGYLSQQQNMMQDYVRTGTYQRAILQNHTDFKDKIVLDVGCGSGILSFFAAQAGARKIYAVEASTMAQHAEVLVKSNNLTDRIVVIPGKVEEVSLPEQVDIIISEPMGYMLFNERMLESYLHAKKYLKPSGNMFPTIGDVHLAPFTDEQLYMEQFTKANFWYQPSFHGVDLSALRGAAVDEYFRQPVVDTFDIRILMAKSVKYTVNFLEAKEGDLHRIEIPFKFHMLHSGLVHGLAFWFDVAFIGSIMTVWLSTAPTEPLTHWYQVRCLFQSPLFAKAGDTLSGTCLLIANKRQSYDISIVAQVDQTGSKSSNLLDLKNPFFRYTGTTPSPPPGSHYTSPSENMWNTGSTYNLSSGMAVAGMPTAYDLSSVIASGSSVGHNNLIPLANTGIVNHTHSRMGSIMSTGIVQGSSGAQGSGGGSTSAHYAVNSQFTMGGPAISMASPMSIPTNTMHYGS
UniProt Q9Y5N1, whole entry: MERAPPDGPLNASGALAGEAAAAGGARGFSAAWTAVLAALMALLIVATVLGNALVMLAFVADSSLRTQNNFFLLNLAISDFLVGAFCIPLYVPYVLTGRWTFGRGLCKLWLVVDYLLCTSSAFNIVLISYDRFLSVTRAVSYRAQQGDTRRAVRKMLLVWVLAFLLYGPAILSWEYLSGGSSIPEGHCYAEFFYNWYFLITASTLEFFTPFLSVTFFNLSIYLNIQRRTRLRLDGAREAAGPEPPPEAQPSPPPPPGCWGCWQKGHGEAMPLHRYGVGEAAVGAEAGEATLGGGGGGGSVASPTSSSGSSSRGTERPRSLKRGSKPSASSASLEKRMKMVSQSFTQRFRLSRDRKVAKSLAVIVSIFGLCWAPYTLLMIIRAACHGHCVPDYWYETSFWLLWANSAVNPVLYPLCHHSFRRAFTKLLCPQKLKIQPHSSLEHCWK
UniProt P33534, whole entry: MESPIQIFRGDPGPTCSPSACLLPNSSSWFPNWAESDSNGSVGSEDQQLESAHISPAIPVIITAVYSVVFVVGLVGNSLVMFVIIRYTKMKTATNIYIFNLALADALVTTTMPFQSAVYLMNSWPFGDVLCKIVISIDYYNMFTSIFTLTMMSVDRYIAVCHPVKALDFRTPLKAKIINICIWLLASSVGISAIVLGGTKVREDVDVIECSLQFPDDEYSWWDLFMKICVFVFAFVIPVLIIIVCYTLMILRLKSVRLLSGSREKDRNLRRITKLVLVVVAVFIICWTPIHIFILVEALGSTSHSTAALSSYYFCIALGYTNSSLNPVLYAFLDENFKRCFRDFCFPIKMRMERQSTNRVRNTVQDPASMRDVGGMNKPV
UniProt P28335, whole entry, looked up: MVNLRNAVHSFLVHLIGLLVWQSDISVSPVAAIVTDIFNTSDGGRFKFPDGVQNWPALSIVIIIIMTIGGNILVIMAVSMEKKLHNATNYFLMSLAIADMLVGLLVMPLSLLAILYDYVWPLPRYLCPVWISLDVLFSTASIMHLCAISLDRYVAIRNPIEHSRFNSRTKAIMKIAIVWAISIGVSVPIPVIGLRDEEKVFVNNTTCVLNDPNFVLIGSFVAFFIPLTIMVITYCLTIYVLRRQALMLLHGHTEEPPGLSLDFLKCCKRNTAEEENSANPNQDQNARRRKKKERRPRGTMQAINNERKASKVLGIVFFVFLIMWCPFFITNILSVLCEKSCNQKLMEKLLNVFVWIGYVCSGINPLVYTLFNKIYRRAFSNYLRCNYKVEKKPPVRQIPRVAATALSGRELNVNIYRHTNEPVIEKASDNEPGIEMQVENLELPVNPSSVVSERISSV
UniProt P07813, whole entry: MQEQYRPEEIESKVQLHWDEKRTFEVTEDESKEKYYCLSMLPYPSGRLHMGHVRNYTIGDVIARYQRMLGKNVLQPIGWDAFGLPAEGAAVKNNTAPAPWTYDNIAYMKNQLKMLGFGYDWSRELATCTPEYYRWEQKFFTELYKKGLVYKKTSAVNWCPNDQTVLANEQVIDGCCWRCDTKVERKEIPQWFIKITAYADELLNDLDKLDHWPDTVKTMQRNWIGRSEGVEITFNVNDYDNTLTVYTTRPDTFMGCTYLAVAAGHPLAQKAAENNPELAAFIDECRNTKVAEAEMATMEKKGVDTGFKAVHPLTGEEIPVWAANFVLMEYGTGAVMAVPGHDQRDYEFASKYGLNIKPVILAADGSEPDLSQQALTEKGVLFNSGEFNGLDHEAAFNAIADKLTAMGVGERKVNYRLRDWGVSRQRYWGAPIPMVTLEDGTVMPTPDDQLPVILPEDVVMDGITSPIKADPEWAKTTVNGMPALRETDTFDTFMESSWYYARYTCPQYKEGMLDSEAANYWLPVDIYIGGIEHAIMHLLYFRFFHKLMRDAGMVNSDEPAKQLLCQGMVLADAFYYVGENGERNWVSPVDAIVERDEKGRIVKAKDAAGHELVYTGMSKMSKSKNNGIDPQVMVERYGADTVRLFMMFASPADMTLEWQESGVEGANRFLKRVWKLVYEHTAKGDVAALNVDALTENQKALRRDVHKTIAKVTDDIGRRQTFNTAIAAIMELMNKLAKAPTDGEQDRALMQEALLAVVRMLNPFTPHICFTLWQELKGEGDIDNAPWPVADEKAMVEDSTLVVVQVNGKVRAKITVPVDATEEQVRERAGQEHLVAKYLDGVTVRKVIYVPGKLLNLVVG
UniProt Q9UUB1, whole entry: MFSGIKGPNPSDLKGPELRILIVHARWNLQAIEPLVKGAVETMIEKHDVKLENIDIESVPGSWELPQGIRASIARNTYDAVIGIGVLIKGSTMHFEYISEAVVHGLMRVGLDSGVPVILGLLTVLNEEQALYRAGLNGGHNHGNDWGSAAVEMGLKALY
UniProt P33535, whole entry: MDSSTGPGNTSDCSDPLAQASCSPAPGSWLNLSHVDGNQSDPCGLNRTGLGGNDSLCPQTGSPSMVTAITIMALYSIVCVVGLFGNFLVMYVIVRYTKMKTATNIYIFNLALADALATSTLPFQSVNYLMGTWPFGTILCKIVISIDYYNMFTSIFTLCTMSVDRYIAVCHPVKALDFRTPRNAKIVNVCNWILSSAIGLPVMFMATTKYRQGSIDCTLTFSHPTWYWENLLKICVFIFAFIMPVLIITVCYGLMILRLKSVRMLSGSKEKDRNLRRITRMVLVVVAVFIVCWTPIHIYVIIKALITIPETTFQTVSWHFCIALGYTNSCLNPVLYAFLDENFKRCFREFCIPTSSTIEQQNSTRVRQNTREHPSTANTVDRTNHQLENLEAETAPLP
UniProt P9WNX1, whole entry: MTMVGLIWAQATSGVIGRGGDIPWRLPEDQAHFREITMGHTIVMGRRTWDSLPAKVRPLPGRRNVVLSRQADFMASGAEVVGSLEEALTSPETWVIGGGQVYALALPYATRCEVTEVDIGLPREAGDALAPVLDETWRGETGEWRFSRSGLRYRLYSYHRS

Compound = NCCNCCSc1ccccc1; test system = urine; setting = 100 µg/mL, 24 h, room temperature; quantity = short-term stability; result = 96.1 ± 2.91 % remaining
Compound = O=C(Oc1c(Br)cc(Br)cc1CNC(=O)c1ccccc1[N+](=O)[O-])c1ccccc1Cl; target or system = lasR (Pseudomonas aeruginosa, UniProt P25084); test = agonist; quantity = Emax; result = 100%
Compound = CSCCC(NC(=O)C(NC(=O)C(CO)NC(=O)C(Cc1ccccc1)NC(=O)C1CCCN1C(=O)C1CCCN1C(=O)C(CCCNC(=N)NCCCC1OC(n2cnc3c(N)ncnc32)C(O)C1O)NC(=O)C1CCCN1C(=O)C(C)NC(=O)C(C)NC(=O)C1CCCN1C(C)=O)C(C)O)C(=O)O (centres unmarked); target or system = CARM1 (Homo sapiens, UniProt Q86X55); scale = baseline: CARM1 over PRMT1; quantity = selectivity ratio; result = 250 fold
Compound = Ic1ccc(CSCn2ccnc2)cc1; target or system = HRH3 (Homo sapiens, UniProt Q9Y5N1); test = binding; setting = together with: [3H]-Nα-methylhistamine; quantity = Ki; result = > 10 µM
Compound = O=C(N[C@@H]1CC[C@@]2(O)[C@H]3Cc4ccc(O)c5c4[C@@]2(CCN3CC2CC2)[C@H]1O5)c1ccnc(Br)c1; target or system = Oprk1 (Mus musculus, UniProt P33534); scale = baseline: Ki µ over Ki κ; quantity = selectivity ratio; result = 3.5
Compound = Nc1nc(Cl)nc2c1ncn2[C@H]1[C@H](O)[C@H](O)[C@]2(CO)C[C@H]12; target or system = HTR2C (Homo sapiens, UniProt P28335); setting = 10 µM, together with: [3H]mesulergine; quantity = inhibition; result = 8%
Compound = c1ccc2c(c1)ccc[n+]2CCCCCCCCCC[n+]1cccc2ccccc21; target or system = HeLa; test = cytotoxicity, MTT; quantity = IC50; result = 2720 µM
Compound = NC[C@H]1OB(O)c2ccccc21; target or system = leuS (Escherichia coli, UniProt P07813); test = binding; quantity = residence time; result = 1 to 8 h
Compound = Clc1ccc(COC2(c3ccccc3)CC3CCC(C2)N3)cc1 (centres unmarked); target or system = Slc6a4; scale = baseline: Ki DAT over Ki SERT; quantity = selectivity ratio; result = 3.6
Compound = c1ccc2c[n+](CCCCCCCC[n+]3ccc4ccccc4c3)ccc2c1; target or system = HeLa; test = cytotoxicity, MTT; quantity = IC50; result = 970 µM
Compound = CCC(=O)Nc1c(NC[C@H](O)[C@H](O)[C@H](O)CO)[nH]c(=O)[nH]c1=O; target or system = 6,7-dimethyl-8-ribityllumazine synthase (rib4, Schizosaccharomyces pombe, UniProt Q9UUB1); test = enzyme activity, enzyme kinetics; setting = pH 7.0, inhibition; quantity = substrate dissociation constant (Ks); result = 1.9 ± 0.3 µM
Compound = Cc1cc(O)cc(C)c1C[C@H](N)C(=O)N[C@@H]1CCNc2ccc(CC3Cc4ccccc4C3)cc21; target or system = Oprm1 (Rattus norvegicus, UniProt P33535); test = agonist; setting = 10 µM; scale = baseline: DAMGO; quantity = maximal stimulation; result = 86%
Compound = c1ccc(COC2(c3ccccc3)CC3CCC(C2)N3)cc1 (centres unmarked); target or system = Slc6a4; scale = baseline: Ki DAT over Ki SERT; quantity = selectivity ratio; result = 0.47
Compound = NC1=NC2(CCCCC2)N(c2ccc(OCc3cn(CCCCOc4ccc5ccc(=O)oc5c4)nn3)cc2)C(N)=N1; target or system = folA (Mycobacterium tuberculosis, UniProt P9WNX1); test = enzyme activity; scale = baseline: human over M. tuberculosis; quantity = selectivity ratio; result = 18

For quick reference, copied from above:
Compound = NCCNCCSc1ccccc1; test system = urine; setting = 100 µg/mL, 24 h, room temperature; quantity = short-term stability; result = 96.1 ± 2.91 % remaining
Compound = O=C(Oc1c(Br)cc(Br)cc1CNC(=O)c1ccccc1[N+](=O)[O-])c1ccccc1Cl; target or system = lasR (Pseudomonas aeruginosa, UniProt P25084); test = agonist; quantity = Emax; result = 100%
